Results pooled from the literature.
Every numbered part comes from another study and shows a few of its results, in no order.

Study 1
Target: Ras GTPase-activating protein-binding protein 1, C-terminal RGG region (G3BP1, Homo sapiens, UniProt Q13283)
Chain of UniProt Q13283 (whole entry, looked up): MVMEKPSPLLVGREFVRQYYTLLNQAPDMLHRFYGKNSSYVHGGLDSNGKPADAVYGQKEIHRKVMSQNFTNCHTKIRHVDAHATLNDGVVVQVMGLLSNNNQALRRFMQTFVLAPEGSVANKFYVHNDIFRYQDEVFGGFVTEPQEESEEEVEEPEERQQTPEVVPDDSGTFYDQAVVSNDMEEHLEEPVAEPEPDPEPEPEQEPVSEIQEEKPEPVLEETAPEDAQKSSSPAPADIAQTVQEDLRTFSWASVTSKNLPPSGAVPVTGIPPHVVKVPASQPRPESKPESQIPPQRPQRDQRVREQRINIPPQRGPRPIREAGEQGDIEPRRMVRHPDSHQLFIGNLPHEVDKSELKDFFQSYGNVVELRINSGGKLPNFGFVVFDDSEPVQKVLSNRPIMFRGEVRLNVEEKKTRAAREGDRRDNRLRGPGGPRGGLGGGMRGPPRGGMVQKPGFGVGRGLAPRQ
Method: RNA Bind-n-Seq
Form: RNA
Matrix: in vitro
Concentration: 1 µM
Setting: whole 134-nt RNA, ends assumed
Together with: 150 mM KCl
Baseline: input library
Reading: higher = stronger binding
`GGGAGUUCUACAGUCCGACGAUCUAGUGAUGGUCCUAAAUAGCAUGAGUGUCAGCUGGAGCGCCCGGAUCCAGAUUUUCUUAACCUUUUGCAAGCUCACAGCAAUUCUGAUAAUGGAAUUCUCGGGUGUCAAGG` gave a log2 enrichment of -1.09.
`GGGAGUUCUACAGUCCGACGAUCUGCAGAUUGAUGAGUAUGAUCACUCCAAGCCCAUCCAGGGGCAACAGAAGAAGCCCUUUGAGGUGCACUGGAGGAAGCACACCCUGUCCUUGGAAUUCUCGGGUGUCAAGG` has a log2 enrichment of -2.08.
With `GGGAGUUCUACAGUCCGACGAUCGAUGAGACAGAUGCUUCAUCAGCAGUGAAAGUGAAAAGAGCAGUCCAGAAAACAUCCGAUUUAAUAGUGUUGGGUCUCCCAUGGAAAACAUGGAAUUCUCGGGUGUCAAGG` the log2 enrichment was -1.08.

Study 2
Target: Histone acetyltransferase KAT6A, winged helix 2, GST fusion (KAT6A, Homo sapiens, UniProt Q92794, residues 85-181)
Method: protein binding microarray
Form: double-stranded DNA, one strand shown
Matrix: in vitro
Concentration: not given
Setting: 8-mer, flanks averaged, mean of 2 arrays, mostly near background
Baseline: not given
Reading: higher = stronger binding
Target sequence (chain): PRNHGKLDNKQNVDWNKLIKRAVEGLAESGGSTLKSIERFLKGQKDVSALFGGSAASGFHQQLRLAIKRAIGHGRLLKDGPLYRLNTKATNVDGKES
The E-score of `AGTCCCAT` is reported as -0.266.
`AAGCGGAT` gave an E-score of 0.0239.
`TCCTAGGA` has an E-score of 0.0316.
`ACAATGAA` gave an E-score of 0.0391.
For `ACAATAAC`, the E-score was -0.0271.

Study 3
Target: Sal-like protein 4, full length isoform B (SALL4, Homo sapiens, UniProt Q9UJQ4-2, residues 1-616)
Method: universal PBM
Form: double-stranded DNA, one strand shown
Matrix: in vitro
Concentration: not given
Setting: 8-mer, flanks averaged, mean of replicates
Reading: higher = stronger binding
The E-score of `CATAGAAC` is reported as -0.123.
`AGGGATAG` has an E-score of -0.0307.
`CGCGTTCC` has an E-score of -0.238.
`CGTTCTAC` gave an E-score of -0.0833.
`AGAGTGGC` gave an E-score of -0.197.
The E-score of `AGTCTGGG` is reported as -0.277.
For `GACGTCAA`, the E-score was 0.0345.

Single results of other studies
With `PhoQ, residues 284 288 289 292 302 303 SCCLKL` the fold induction was 0.524 (PhoP, residues 12 14 15 18 19 IFFTR (Escherichia coli, UniProt P23836); Sort-seq, refers to: YFP reporter; E. coli; PhoQ-PhoP variant library, together with: 10 µM Mg2+; baseline: high Mg2+ state, higher = stronger signaling).

Repeated from above (study 3):
The E-score of `CATAGAAC` is reported as -0.123.
